Results pooled from the literature.
Compare with care: the assays were run in different laboratories. Several values in a cell are separate wells, animals, samples, runs or records.
USP13 ZnF-UBD domain: Ubiquitin carboxyl-terminal hydrolase 13, ZnF-UBD domain (USP13, Homo sapiens, UniProt Q92995)
Sequence of UniProt Q92995 (whole entry, looked up): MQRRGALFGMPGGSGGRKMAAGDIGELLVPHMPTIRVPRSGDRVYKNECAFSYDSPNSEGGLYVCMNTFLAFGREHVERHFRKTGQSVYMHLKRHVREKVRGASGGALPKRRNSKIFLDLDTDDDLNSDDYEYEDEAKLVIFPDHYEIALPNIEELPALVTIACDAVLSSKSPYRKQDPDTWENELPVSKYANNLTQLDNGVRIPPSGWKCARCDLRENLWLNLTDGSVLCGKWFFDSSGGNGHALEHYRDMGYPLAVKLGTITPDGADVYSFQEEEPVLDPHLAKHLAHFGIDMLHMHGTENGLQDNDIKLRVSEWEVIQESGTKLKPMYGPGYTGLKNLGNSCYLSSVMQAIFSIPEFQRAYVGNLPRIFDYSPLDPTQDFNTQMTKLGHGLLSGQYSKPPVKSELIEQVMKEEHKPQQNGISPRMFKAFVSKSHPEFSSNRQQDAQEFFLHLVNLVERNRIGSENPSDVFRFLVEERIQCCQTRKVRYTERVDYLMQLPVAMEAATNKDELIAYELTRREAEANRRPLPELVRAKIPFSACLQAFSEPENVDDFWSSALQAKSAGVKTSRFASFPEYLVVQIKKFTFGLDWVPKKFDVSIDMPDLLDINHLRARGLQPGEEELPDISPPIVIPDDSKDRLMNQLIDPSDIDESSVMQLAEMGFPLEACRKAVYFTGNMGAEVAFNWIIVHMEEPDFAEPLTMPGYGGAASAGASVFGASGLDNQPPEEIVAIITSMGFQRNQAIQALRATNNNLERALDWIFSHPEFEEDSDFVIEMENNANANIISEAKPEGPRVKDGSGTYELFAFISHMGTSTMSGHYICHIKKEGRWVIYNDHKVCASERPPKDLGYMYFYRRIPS
Sequence of UniProt Q13043 (whole entry, looked up): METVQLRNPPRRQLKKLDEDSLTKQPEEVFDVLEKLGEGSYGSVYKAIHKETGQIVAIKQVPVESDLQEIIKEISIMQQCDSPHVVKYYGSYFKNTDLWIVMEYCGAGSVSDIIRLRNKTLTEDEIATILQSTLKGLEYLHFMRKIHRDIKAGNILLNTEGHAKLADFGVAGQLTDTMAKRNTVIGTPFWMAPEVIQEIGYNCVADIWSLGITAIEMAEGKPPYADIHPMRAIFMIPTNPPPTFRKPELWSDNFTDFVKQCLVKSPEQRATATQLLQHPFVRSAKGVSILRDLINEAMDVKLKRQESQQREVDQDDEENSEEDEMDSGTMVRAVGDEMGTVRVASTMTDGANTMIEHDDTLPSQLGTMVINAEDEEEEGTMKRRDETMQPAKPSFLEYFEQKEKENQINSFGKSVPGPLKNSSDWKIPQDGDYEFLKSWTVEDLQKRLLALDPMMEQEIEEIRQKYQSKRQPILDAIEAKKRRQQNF

O=C(O)CCn1nnc(-c2ccccc2)n1  Kd (USP13 ZnF-UBD domain): 950 µM
OC(CCN1CCCCC1)(c1ccccc1)C1CC2C=CC1C2 (stereo not shown)  EEG Beta3-power Pz-O2 (resting-state EEG; healthy elderly humans; oral, 4 mg, eyes closed, LS mean): 2.1 µV²
O=C(O)CCC(=O)Nc1ccccc1  Kd (USP13 ZnF-UBD domain): 872 µM
COc1cc2cc(-c3ccc(CC(=O)Nc4cc(C(C)(C)C(F)(F)F)no4)cn3)cnc2cc1OC  best overall response PR (RECIST v1.1; human RET-mutant medullary thyroid cancer; 75 mg, phase I): 29%
c1ccc(-c2n[nH]cc2-c2ccnc3ccccc23)nc1  log2 fold change (kinase binding, competitor, MIB/MS competition, measured: HRK1; Candida albicans cell lysate; 100 nM; relative to: DMSO): 1.33
O=C(O)CNC(=O)Cc1ccccc1  sarcomere length (ventricular cardiomyocytes, C57BL/6 mouse; dose not given, 0.724 s): 1.72 µm
NC(=O)c1cnc2[nH]ccc2c1N[C@@H]1[C@@H]2CC3C[C@H]1C[C@@](O)(C3)C2  CD8+ effector memory change (flow cytometry; Japanese healthy men, blood; oral, 100 mg twice daily, 72 h after day 7 dose; relative to: baseline): 0.18%
CC(C)NCC(O)c1ccc(O)c(O)c1 (stereo not shown)  sarcomere length (ventricular cardiomyocytes, C57BL/6 mouse; dose not given, 0.192 s): 1.49 µm
CC[C@@H]1[C@H](F)C(=O)N[C@@H]1COc1nccc2cc(C(N)=O)c(OC)cc12  IC50 (STK4 (Homo sapiens, UniProt Q13043); ATP probe binding, KiNativ profiling, measured: MST1 Lys1 probe site; THP-1 cell lysate): > 5 µM
Cn1cc(-c2ccc(-c3cncc(Cl)c3N3CCC4(CCNC4=O)CC3)cc2)cn1  log2 fold change (COLO 205; gene expression, microarray, measured: LCN2 mRNA; concentration not given, 2 h; relative to: untreated cells): 2.21
C[C@H]1C[C@H]2CSC(N)=N[C@@]2(c2nc(NC(=O)c3ccc(OC(F)F)cn3)cs2)CO1  percent change from baseline (measured: total Aβ; healthy adults, plasma; 200 mg single dose, 8 h post-dose; relative to: placebo): -59.1%
Cc1nn(-c2nc3c(F)cc(F)cc3s2)c(O)c1C(c1ccc(C(F)(F)F)cc1)c1c(C)nn(-c2nc3c(F)cc(F)cc3s2)c1O  histology score (measured: inflammatory infiltration; mouse, cerulein-induced acute pancreatitis; 25 mg/kg; direction not given): 0 and 2
CN[C@@H]1COc2c(S(=O)(=O)NC(=O)Nc3c4c(cc5c3CCC5)CCC4)cnn2C1  inhibition (measured: IL-18; human participants, whole blood ex vivo; 1800 mg single dose, 4 h, IL-18, circulating, adjusted for, with: LPS/ATP; relative to: baseline): 99.6%

Excerpt of the above:
COc1cc2cc(-c3ccc(CC(=O)Nc4cc(C(C)(C)C(F)(F)F)no4)cn3)cnc2cc1OC  best overall response PR (RECIST v1.1; human RET-mutant medullary thyroid cancer; 75 mg, phase I): 29%
